Experimental data gathered from unrelated publications.
Each line is one published result; not all experiments were run side by side. ± gives the spread as reported.
Sequence of UniProt P21729 (whole entry, looked up): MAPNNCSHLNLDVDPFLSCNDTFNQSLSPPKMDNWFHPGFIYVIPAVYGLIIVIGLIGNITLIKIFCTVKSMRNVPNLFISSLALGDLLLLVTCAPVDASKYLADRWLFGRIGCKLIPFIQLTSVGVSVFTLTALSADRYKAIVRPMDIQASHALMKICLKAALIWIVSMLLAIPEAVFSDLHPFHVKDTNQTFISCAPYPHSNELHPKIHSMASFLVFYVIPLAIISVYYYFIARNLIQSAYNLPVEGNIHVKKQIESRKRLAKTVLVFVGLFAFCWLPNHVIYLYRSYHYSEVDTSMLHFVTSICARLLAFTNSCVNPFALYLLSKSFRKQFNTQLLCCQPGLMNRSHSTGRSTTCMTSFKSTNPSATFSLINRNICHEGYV

| SMILES | target or system | test | test system | conditions | scale | measurement | value |
| --- | --- | --- | --- | --- | --- | --- | --- |
| C[C@H]1N=C(c2ccccc2F)c2cc(Br)ccc2-n2cnc(C(=O)OC3O[C@H](C(=O)O)[C@@H](O)[C@H](O)[C@H]3O)c21 (stereo partly drawn) | – | LC-MS/MS | Swiss Webster mouse, female, urine | oral, 750 µg parent drug, 0 to 24 h | – | cumulative excretion | 5.8 ± 0.4% |
| CC(C)[C@H](NC(=O)CNC(=O)[C@H](CCC(N)=O)NC(=O)[C@H](C)N)C(=O)O | – | – | human | 30 mg/kg, 3 days, thrice daily dosing | – | discontinuation due to adverse events | 0% |
| CCC(=O)N(C)c1ccc(Cl)c(Cl)c1 | Escherichia coli | Ames test | WP2 uvrA | 1.00 mg/plate, with rat liver S9 | – | revertants | 31 ± 1.7 revertants/plate |
| CC[C@H](C)[C@H](NC(=O)[C@H](C)NC(=O)[C@H](C)NC(=O)[C@H](CCC(N)=O)NC(=O)CNC(=O)[C@H](CC(C)C)NC(=O)[C@H](Cc1c[nH]cn1)NC(=O)[C@H](CCCCN)NC(=O)[C@H](C)NC(=O)CNC(=O)[C@H](CCCCN)NC(=O)[C@H](CCCNC(=N)N)NC(=O)[C@H](CC(C)C)NC(=O)[C@H](Cc1c[nH]c2ccccc12)NC(=O)[C@H](CCCCN)NC(=O)[C@H](CCCCN)NC(=O)[C@H](Cc1c[nH]c2ccccc12)NC(=O)CN)C(=O)N[C@@H](CCCCN)C(N)=O | – | – | zebrafish embryos | 1 h, 4, 28, 52 hpf | – | acute toxic concentration | 5 µg/mL |
| CC(C)C[C@@H](NC(=O)[C@@H](CCCCN)NC(=O)CNC(=O)CNC(=O)[C@@H]1CSSC[C@H](N)C(=O)NCC(=O)N[C@@H](CCCNC(=N)N)C(=O)N[C@@H](CCCNC(=N)N)C(=O)N[C@@H](C)C(=O)NCC(=O)NCC(=O)N[C@@H](CO)C(=O)N1)C(=O)N[C@H](C)C(=O)N[C@H](CCCCN)C(=O)N[C@H](CC(C)C)C(=O)N[C@H](C)C(=O)N[C@H](CCCCN)C(=O)N[C@H](CCCCN)C(=O)N[C@H](CC(C)C)C(=O)N[C@H](C)C(=O)N[C@H](CCCCN)C(=O)N[C@H](CC(C)C)C(=O)N[C@H](C)C(=O)N[C@H](CCCCN)C(=O)O | – | – | cynomolgus monkey, plasma | intravenous, 9 mg/kg, infusion | – | half-life | 40.2 min |
| C[C@@](O)(C(F)F)[C@H](NC(=O)c1ccc(C#CC#CC2CC2)cc1)C(=O)NO | – | – | dog, plasma | intravenous, 30 mg/kg | – | Vd | 3.4 L/kg |
| CC(C)C[C@@H](N)C(=O)NCC(=O)N[C@H](C)C(=O)N[C@H](CO)C(=O)N[C@H](Cc1c[nH]c2ccccc12)C(=O)N[C@H](Cc1c[nH]cn1)C(=O)N[C@H](CCCNC(=N)N)C(=O)N1CCC[C@@H]1C(=O)N[C@H](CC(=O)O)C(=O)N[C@H](CCCCN)C(=O)N[C@H](CS)C(=O)N[C@H](CS)C(=O)N[C@H](CC(C)C)C(=O)NCC(=O)N[C@H](Cc1ccc(O)cc1)C(=O)N[C@H](CCC(N)=O)C(=O)N[C@H](CCCCN)C(=O)N[C@H](CCCNC(=N)N)C(=O)N1CCC[C@@H]1C(=O)N[C@H](CC(C)C)C(=O)N1CCC[C@@H]1C(N)=O | – | LC-MS/MS | rat plasma | 5000 ng/mL, -80 to 25 °C, 3 freeze-thaw cycles | relative to: nominal | accuracy | 111% |
| COC[C@@H](NC(C)=O)C(=O)NCc1ccc(OCc2ccc(OC(F)(F)F)cc2)cc1 | – | behavioural toxicity | rat | oral | – | TD50 | 250 to 500 mg/kg |
| O=C(O)CCC(NP(=O)(O)OCCC[C@@H](NC(=O)CCC(NC(=O)c1ccc([18F])cc1)C(=O)O)C(=O)O)C(=O)O (stereo partly drawn) | CWR22Rv1 tumour model | – | host not given, muscle | intravenous, 2 h, tumour-bearing | – | tracer uptake | 0.19 %ID/g |
| CCCNC(=O)[C@H](CC(C)C)NC(=O)[C@H](Cc1c[nH]cn1)NC(=O)CNC(=O)[C@@H](NC(=O)[C@H](C)NC(=O)[C@H](Cc1c[nH]c2ccccc12)NC(=O)[C@H](CCC(N)=O)NC(=O)[C@@H](Cc1ccccc1)NC(=O)CCCCCNC(=O)CN1CCN(CC(=O)O)CCN(CC(=O)O)CCN(CC(=O)O)CC1)C(C)C [indium-111 labelled] | Gastrin-releasing peptide receptor (Mus musculus, UniProt P21729) | – | CF-1 mice, carcass | intravenous, 0.185 MBq, 1 h | – | tissue uptake | 0.16 ± 0.01 %ID/g |
| CC[C@@H](C)[C@@H](NC(=O)[C@@H](C)NC(=O)[C@@H](CCCCN)NC(=O)[C@@H](CC(C)C)NC(=O)[C@@H](C)NC(=O)[C@H](NC(=O)[C@@H](Cc1c[nH]cn1)NC(=O)[C@@H](CC(C)C)NC(=O)[C@H](NC(=O)[C@H](NC(=O)[C@@H](CCCCN)NC(=O)[C@@H](CCCCN)NC(=O)[C@@H](C)NC(=O)[C@@H](CO)NC(=O)[C@@H](CCCCN)NC(=O)[C@@H](Cc1ccccc1)NC(=O)[C@H](NC(=O)[C@@H](CCCCN)NC(=O)[C@@H](CC(C)C)NC(=O)[C@@H](Cc1ccccc1)NC(=O)[C@@H](CO)NC(=O)[C@@H](CCCCN)NC(=O)[C@@H](Cc1c[nH]c2ccccc12)NC(=O)[C@@H](CCCCN)NC(C)=O)[C@H](C)O)[C@H](C)O)C(C)C)[C@H](C)O)C(=O)N[C@H](CO)C(=O)N[C@H](CO)C(N)=O | – | circular dichroism at 222 nm | benign buffer | pH 7.0, 5 °C | – | mean residue ellipticity | 1150 deg cm2/dmol |
| CN[C@](C)(C[18F])C(=O)O | MDA-MB-468 tumour model | – | host not given, bone | 1 h, tumour-bearing | – | tracer uptake | 1.3 %ID/g |
| CC[C@H](C)C(=O)N1CCC(NC(=O)Nc2ccc(OC(F)(F)F)c(F)c2)CC1 | – | – | healthy volunteers | oral, 16 mg single dose, device site dermatitis | – | subjects with dermatitis TEAE | 66.7% |
| Cc1ccccc1CN1CCC(O)(c2ccc(Cl)c(C(F)(F)F)c2)CC1 | – | – | BALB/c mouse | intraperitoneal, 100 mg/kg, 96 h | – | survival | 67% |
| Nc1ccn(CC2COP(=O)(OCCCCCCCCCCCCNC(=O)CCCCC3SCC4NC(=O)NC43)CO2)c(=O)n1 (mixture of isomers) | – | – | rabbit, retina-choroid | – | relative to: parent CDF | partition coefficient | 9.8 fold |

Repeated from above:
| SMILES | target or system | test | test system | conditions | scale | measurement | value |
| --- | --- | --- | --- | --- | --- | --- | --- |
| CC(C)[C@H](NC(=O)CNC(=O)[C@H](CCC(N)=O)NC(=O)[C@H](C)N)C(=O)O | – | – | human | 30 mg/kg, 3 days, thrice daily dosing | – | discontinuation due to adverse events | 0% |
| CC[C@@H](C)[C@@H](NC(=O)[C@@H](C)NC(=O)[C@@H](CCCCN)NC(=O)[C@@H](CC(C)C)NC(=O)[C@@H](C)NC(=O)[C@H](NC(=O)[C@@H](Cc1c[nH]cn1)NC(=O)[C@@H](CC(C)C)NC(=O)[C@H](NC(=O)[C@H](NC(=O)[C@@H](CCCCN)NC(=O)[C@@H](CCCCN)NC(=O)[C@@H](C)NC(=O)[C@@H](CO)NC(=O)[C@@H](CCCCN)NC(=O)[C@@H](Cc1ccccc1)NC(=O)[C@H](NC(=O)[C@@H](CCCCN)NC(=O)[C@@H](CC(C)C)NC(=O)[C@@H](Cc1ccccc1)NC(=O)[C@@H](CO)NC(=O)[C@@H](CCCCN)NC(=O)[C@@H](Cc1c[nH]c2ccccc12)NC(=O)[C@@H](CCCCN)NC(C)=O)[C@H](C)O)[C@H](C)O)C(C)C)[C@H](C)O)C(=O)N[C@H](CO)C(=O)N[C@H](CO)C(N)=O | – | circular dichroism at 222 nm | benign buffer | pH 7.0, 5 °C | – | mean residue ellipticity | 1150 deg cm2/dmol |
